Experimental data collected from several papers.
Protocols differ between the studies behind these lines.
Technique: steady-state kinetics
B1: enzyme K299V (Mus musculus, UniProt P08680); chain DRKSKIVQRAAPEVQEDVKTFKTDLLSTMDSTTRSHSFPSFQEPEQTEGAVPHLIQNNMTGSQAFGYDQFFRDKIMEKKQDHTYRVFKTVNRWANAYPFAQHFSEASMASKDVSVWCSNDYLGISRHPRVLQAIEETLKNHGAGAGGTRNISGTSKFHVELEQELAELHQKDSALLFSSCFVANDSTLFTLAKLLPGCEIYSDAGNHASMIQGIRNSGAAVFVFRHNDPGHLKKLLEKSDPKTPKIVAFETVHSMDGAICPLEELCDVAHQYGALTFVDEVHAVGLYGARGAGIGERDGIMHKLDIISGTLGKAFGCVGGYIASTRDLVDMVRSYAAGFIFTTSLPPMVLSGALESVRLLKGEEGQALRRAHQRNVKHMRQLLMDRGFPVIPCPSHIIPIRVGNAALNSKICDLLLSKHSIYVQAINYPTVPRGEELLRLAPSPHHSPQMMENFVEKLLLAWTEVGLPLQDVSVAACNFCHRPVHFELMSEWERSYFGNMGPQYVTTYA
B2: aromatic amino acid decarboxylase (Bacillus atrophaeus, UniProt I0DFJ0); chain MSENLQLSAEEMRQLGYQAVDLIIDHMNHLKSKPVSETIDSDILRNKLTESIPENGSDPKELLHFLNRNVFNQITHVDHPHFLAFVPGPNNYVGVVADFLASGFNVFPTAWIAGAGAEQIELTTINWLKSMLGFPDSAEGLFVSGGSMANLTALTVARQAKLNNDIENAVVYFSDQTHFSVDRALKVLGFKHHQICRIETDEHLRISVSALKKQIKEDRTKGKKPFCVIANAGTTNCGAVDSLNELADLCNDEDVWLHADGSYGAPAILSEKGSAMLQGIHRADSLTLDPHKWLFQPYDVGCVLIRNSQYLSKTFRMMPEYIKDSETNVEGEINFGECGIELSRRFRALKVWLSFKVFGVAAFRQAIDHGIMLAEQVEAFLGKAKDWEVVTPAQLGIVTFRYIPSELASTDTINEINKKLVKEITHRGFAMLSTTELKEKVVIRLCSINPRTTTEEMLQIMMKIKALAEEVSISYPCVAE
B3: protein (Scutellaria baicalensis, UniProt A0A146AUI9); chain MDLVEVTLYAALFLLSAAFLLLIFAGDRSSPPGPFPLPIIGHLHLLGPKLHQSFHGLSQRHGPLMQIRLGSINCVVASTPELAKEFLKTNELVFSSRKHSTAIDIVTYNSSFAFSPYGPYWKYIKKLCTYELLGARNLHHFQPIRTFEVHTFLRLLMEKSESGESFNVTEELIKLTSNVMSNMMLGTRCSATDGEAEAARTVIREVTEIFGEFDAADIIWFCKNFDLQGIRKRSEDIQRRYDALLEKIITDREKLRRSHRGGEAKDFLDIFLDIMDSGNSEVKFSREHLKALILDFFTAGTDTTAISTEWAIAELMNNPKVLKKAQEEIQKVVGSCRLMDESDAPNLPYLEAIIKETFRLHPPIPMLARKSVSDCVIDGYNIPASTLLFVNIWSIGRNPECWDSPFSFRPERFFEKDNASIDIKGQHFQLLPFGTGRRGCPGMLLAIQELLLIIGTMIQCFDWELPEGSGPVDMTERAGLTAPRAEDLICRVSCRVDPKIVF
B4: enzyme (Aquifex aeolicus, UniProt O67060); chain MIKVLSPAKINLGLWVLGRLPSGYHEILTLYQEIPFYDEIYIREGVLRVETNIGIPQEENLVYKGLREFERITGIEINYSIFIQKNIPPGAGLGGGSSNLAVVLKKVNELLGSPLSEEELRELVGSISADAPFFLLGKSAIGRGKGEVLEPVETEISGKITLVIPQVSSSTGRVYSSLREEHFVTPEYAEEKIQRIISGEVEEIENVLGDIARELYPEINEVYRFVEYLGFKPFVSGSGSTVYFFGGASEELKKAAKMRGWKVVELEL
B5: cyc1 A236G (Streptomyces coelicolor, UniProt Q9K499); chain MHAFPHGTTATPTAIAVPPSLRLPVIEAAFPRQLHPYWPKLQETTRTWLLEKRLMPADKVEEYADGLCYTDLMAGYYLGAPDEVLQAIADYSAWFFVWDDRHDRDIVHGRAGAWRRLRGLLHTALDSPGDHLHHEDTLVAGFADSVRRLYAFLPATWNARFARHFHTVIEAYDREFHNRTRGIVPGVEEYLELRRLTFAHWIWTDLLEPSSGCELPDAVRKHPAYRRAALLSQEFGAWYNDLCSLPKEIAGDEVHNLGISLITHHSLTLEEAIGEVRRRVEECITEFLAVERDALRFADELADGTVRGKELSGAVRANVGNMRNWFSSVYWFHHESGRYMVDSWDDRSTPPYVNNEAAGEK
B6: protein (Trichoderma virens, UniProt G9MQB8); chain GQVPVSVNYHFSRKCNKECLFCFHTATTSHVEKPENAKRGLTLLKQAGMKKINFAGGEPFLYPKFLGEMIDFCKETLQLESVSIVTNGSLVKEQFLQKHGRNIDILAVSCDSFNEATNIKIGRGSGDNVQKLYEIGSWCQKYDIKFKLNTVVNKFNHLEDMNDHLNALQPFRWKCFQVLIVTGENDSDKTLRNAHSLTISDDEFDRFCERHSSQTCLVPEPNRLMAKSYLILDEYMRFLDRNGQQPSKSILEVGVQQALQAVFWDEEAFVERGGIYDWNKSSCSSDSKDLEW
Chain of UniProt P22106 (whole entry, looked up): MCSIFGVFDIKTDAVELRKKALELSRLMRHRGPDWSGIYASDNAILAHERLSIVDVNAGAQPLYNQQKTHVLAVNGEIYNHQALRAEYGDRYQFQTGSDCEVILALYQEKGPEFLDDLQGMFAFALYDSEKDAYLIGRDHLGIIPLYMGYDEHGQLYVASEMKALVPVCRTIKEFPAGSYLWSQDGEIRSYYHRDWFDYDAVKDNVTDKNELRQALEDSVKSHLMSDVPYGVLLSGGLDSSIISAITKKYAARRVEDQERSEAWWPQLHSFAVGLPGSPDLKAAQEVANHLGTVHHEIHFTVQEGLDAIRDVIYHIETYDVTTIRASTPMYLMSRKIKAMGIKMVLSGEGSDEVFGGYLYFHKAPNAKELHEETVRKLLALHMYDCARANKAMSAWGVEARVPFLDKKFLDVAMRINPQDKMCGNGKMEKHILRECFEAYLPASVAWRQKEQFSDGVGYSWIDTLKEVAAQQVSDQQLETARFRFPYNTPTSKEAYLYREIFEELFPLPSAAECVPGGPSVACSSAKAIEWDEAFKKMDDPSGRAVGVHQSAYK

| Molecule | substrate | pH | temperature | notes | with | Km |
| --- | --- | --- | --- | --- | --- | --- |
| B1 (enzyme K299V) | CC(C)(COP(=O)(O)OP(=O)(O)OC[C@H]1O[C@@H](n2cnc3c(N)ncnc32)[C@H](O)[C@@H]1OP(=O)(O)O)[C@@H](O)C(=O)NCCC(=O)NCCSC(=O)CCC(=O)O | pH 7.5 | 37 °C | – | – | 23 µM |
| B2 | N[C@@H](Cc1c[nH]c2c(Cl)cccc12)C(=O)O | pH 7 | 37 °C | not purified | PLP 40 µM | 700 µM |
| B3 (protein) | O=C1C[C@@H](c2ccccc2)Oc2cc(O)cc(O)c21 | pH 7.9 | 28 °C | apparent, not purified | NADPH | 0.24 µM |
| B4 (enzyme) | C[C@](O)(CO)[C@H](O)COP(=O)(O)OP(=O)(O)OC[C@H]1O[C@@H](n2ccc(N)nc2=O)[C@H](O)[C@@H]1O | pH 8.5 | 37 °C | – | – | 121 µM |
| protein (Candidatus Protochlamydia amoebophila, UniProt A0A2P9HA01) | Nc1ncnc2c1ncn2[C@@H]1O[C@H](COP(=O)(O)OP(=O)(O)O)[C@@H](O)[C@H]1O | pH 7 | 30 °C | transporter, labelled substrate, apparent, not purified | – | 273 µM |
| asnB (Escherichia coli, UniProt P22106) | N[C@@H](CC(=O)O)C(=O)O | pH 8 | 37 °C | apparent | L-glutamine 20 mM | 580 µM |
| B5 (cyc1 A236G) | CC(C)=CCC/C(C)=C/CC/C(C)=C/CO[P@@](=O)(O)OP(=O)(O)O | pH 6.5 | 30 °C | – | MgCl2 10 mM | 0.45 µM |
| enzyme (Bifidobacterium adolescentis, UniProt A1A3M6) | O=[N+]([O-])c1ccc(O[C@H]2OC[C@H](O)[C@H](O)[C@H]2O)cc1 | pH 5 | 40 °C | – | – | 1480 µM |
| B6 (protein) | O=c1ccn([C@@H]2O[C@H](COP(=O)(O)OP(=O)(O)OP(=O)(O)O)[C@@H](O)[C@H]2O)c(=O)[nH]1 | pH 7.5 | – | KCl 150 mM | SAM 1 mM, dithionite 5 mM | 79 µM |

Some of these lines once more:
| Molecule | substrate | pH | temperature | notes | with | Km |
| --- | --- | --- | --- | --- | --- | --- |
| B5 (cyc1 A236G) | CC(C)=CCC/C(C)=C/CC/C(C)=C/CO[P@@](=O)(O)OP(=O)(O)O | pH 6.5 | 30 °C | – | MgCl2 10 mM | 0.45 µM |
